# Results gathered from unrelated publications.
# Every numbered part comes from another study and shows a few of its results, in no order. Substitutions count along the parent as printed.

# Set 1
# Target: Histone acetyltransferase KAT6A, winged helix 1, GST fusion (KAT6A, Homo sapiens, UniProt Q92794, residues 1-85)
# Method: protein binding microarray
# Molecule type: double-stranded DNA, one strand shown
# Medium: in vitro
# Concentration: not given
# Setting: 8-mer, flanks averaged, mean of 2 arrays, mostly near background
# Reference: not given
# Reading: higher = stronger binding
# Construct (chain): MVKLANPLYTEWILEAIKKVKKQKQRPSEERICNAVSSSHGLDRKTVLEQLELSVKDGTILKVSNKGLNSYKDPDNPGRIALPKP
Strand,E-score
CAAGCGCA,0.184
GTTGCTCA,-0.262
GTTACGAA,-0.0316
CTCATGAA,0.000335
GATCGGAC,0.038
GAGTACGA,-0.0392
AAGCCACG,-0.0237
ACATAGGT,-0.195
CGTTGATA,0.0727
ATGCAACA,-0.298
CAGGCTTC,0.0627
AGACAAGA,-0.0425
CAGCTACA,-0.0675
CCTAGGCG,0.0654
GCCTTGCA,-0.111
GAGGCTGC,-0.161
CCGCGTGA,0.323
AACCTAAG,-0.0356
AACGACGA,-0.145
CTGCTTGC,-0.016
AGCTTGCC,0.0767
TGCGACAA,-0.0171
ACTAAGGG,-0.0306
GACCTCTA,-0.0872
CCCTTTAA,-0.000645

# Set 2
# Target: RNA binding protein fox-1 homolog 2, RRM domain, GST-SBP tag (RBFOX2, Homo sapiens, UniProt O43251-10, residues 100-194)
# Method: RNA Bind-n-Seq
# Molecule type: RNA
# Medium: in vitro
# Concentration: 365 nM
# Setting: natural RNA segment, single round, ends assumed
# Reference: no-protein control
# Reading: higher = stronger binding
# Shared flanks, not repeated: GGGAGUUCUACAGUCCGACGAUC … UGGAAUUCUCGGGUGCCAA
# Residues (chain): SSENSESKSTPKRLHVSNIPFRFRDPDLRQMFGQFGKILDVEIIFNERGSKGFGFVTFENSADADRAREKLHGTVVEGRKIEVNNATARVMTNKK
Strand,RBNS enrichment (R)
CAAAUUGGUAUUUUUAAAGAUGUAACAUACUUUUUUUUUUAGGUCUCUAGCUACCCACAAGGGAAGUGUAUAGCAUAAAAAGUCUAAGUAGCAUAUCCUGUCCUGAAAGU,0.308
AGCUGGCUGUAAUGCCUUAUCUCUUCUGGAAAGACGCUGGCUCAGACCGUGGAUUUGGCUUAGCACUGUUAAGCAUACAGGUAUCUACAGGCCUGGUGUGGUUUGUUCUG,0.375
ACUAAGCCCCUGCCCCUGAGCUCCAGAGCUGUGUGUUUGGGCAAGGAUGGGCGGGGAUUGGCCGGGGCAGGUUGCCUUUACUAGCCAUUGGCCUGUGUCCGCCACUUGGA,0.294
AUAAGUUGAAAGGCACUGGAACUGUUCAUGUCCAUACCAGACCGGUAAAUUAUAAGAUCCAGAUGUUAGUGUCUAGAAUUAGCUGUUUAGAAUUCAGAGGGGACAUAUGU,0.525
UUAAAAGAUGCCUGGGUACCUUUUAUUUUAUGGCAUUUGUAUUAAAAAUAAAGUAUGAUGGUAAGAAAAUAGCUUUUAAACUGCUUCUUUUCAUUCACCCCACUUUCUUU,0.38
AUCACUUGAGGGGACUAUAAUGCAGUAUUUGCACCCCAAGAUAUUUACCUUAAAGUGGAAUCAGAAUGAGGUUCCCAAGCAAGAACUUGCCACCAAGGCCCCAAAGGAUA,0.675
ACUCCUUUGACAGGCGACAAACUACUGUGGUGAGCAGAAUGAUUUCCUUUUUCAAGACAACACCUGCCUGGCUUCUAUUAAUGUGUGCUGGCCAUGAUAUUGCCCCAAAU,0.376
AACGAAAUUACCAUACUCUUAAACAGACCUGUUAAAUUAAUGUGGACUGGCAGUUAACUUGUGCAACUCACUGAAACCAAAAUAUUGAAGAAGUCCCACAUGGAAGACGC,0.385
UCUAGAUGCACAAUCCAAUACAGUGGCCUCGUGUGGCUGUAUAACUCGGUUCACUUCAGACUACGUGAUUGGAAGUCAUUCCUCGGUUGCACUAGCCACACAAAAUGCUC,0.254
UCACCAGCUGUUGAGAGUCUGCGAUUAUGAAGAGCAGGAUCUUAUUACUUCAAUGAAAGCAUGUAACAAGUUUCUCAAACCACCAACAGCCAAGUGGAUUUGGUACAGUG,0.795
AUUCUUGUAGAAGGCAGUUUCCUCUACUUGCCCAAGAGCACUGAGUACUUCUCUACUAUCCUAUUAUUAGCUUCUAUCUCUUAGUGUAACUUCAAAACUUUUAAGAGCAG,0.358
UUUAUACUAAAAAUGUAGAAUAAAGACUAUUUUGAAGAUUUGAAUAAAGUGAUGAAGUUGCAUUACACCUCACUGCAAGGAUUCUUUACUUAGCUUGUUUUUAGAUUUCU,2.22

# Set 3
# Target: Probable WRKY transcription factor 33, C-terminal DNA-binding domain (WRKY33, Arabidopsis thaliana, UniProt Q8S8P5, residues 346-449)
# Method: DNA-protein interaction ELISA
# Molecule type: double-stranded DNA, one strand shown
# Medium: in vitro, bacterial lysate
# Concentration: not given
# Setting: whole dsDNA probe, crude lysate protein
# Reference: highest signal in screen
# Reading: higher = stronger binding
# Residues (chain): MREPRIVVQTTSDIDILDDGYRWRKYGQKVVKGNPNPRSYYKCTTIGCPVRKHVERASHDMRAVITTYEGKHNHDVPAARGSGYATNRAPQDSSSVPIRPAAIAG
Strand,relative absorbance
AAAAAATTTGTTCGGGCTCATAACTGAAAA,31.2 % of maximum
AAAAAATGGATCTTTACTTTAGGCCAAAAA,65.5 % of maximum
AAAAAAGGCCTTCGCTCGTGTTTACGAAAA,28.7 % of maximum
AAAAAAGGCTGTGGCCAATGTTCGTAAAAA,26.6 % of maximum
AAAAAAATCGTTGTTATCGTATTTATAAAA,35.6 % of maximum
AAAAAATTCCGGCTTGACGCTGCATAAAAA,32.1 % of maximum
AAAAAAAAGAGCCTGGGGGTTCGCATAAAA,31 % of maximum
AAAAAATAGACCCTGACCCACCATTGAAAA,42.4 % of maximum
AAAAAAAAATCGAATTTGGACTTCCGAAAA,54.6 % of maximum
AAAAAAAGTTCGCGGATTTCGGCCATAAAA,59.1 % of maximum
AAAAAAATCTTTGCGTCGAGATTCTTAAAA,28.1 % of maximum
AAAAAACTGGATGCGCTCACCAGTTAAAAA,30.6 % of maximum
AAAAAACTTGCTCCTCCGTTTTACTCAAAA,58.4 % of maximum
AAAAAACGTATTGATGTCTATTTCAAAAAA,27.9 % of maximum
AAAAAATGCCCATGTGCACCCGTACGAAAA,35 % of maximum
AAAAAAGGCTTCCACTTTGAGTTTGCAAAA,26 % of maximum
AAAAAACCGTATGTATATCTATATGTAAAA,34.9 % of maximum
AAAAAATGTGCCCGTGTGTGCTCGCGAAAA,32.8 % of maximum
AAAAAAACCCTGTGTCGGCCGATAAAAAA,29.1 % of maximum
AAAAAATAGCGACTTCGACTCTCAGTAAAA,42.8 % of maximum
AAAAAAGGCTCCGGCCCCCAATCGCAAAAA,31.1 % of maximum
AAAAAATTCTTACTTTTGTCTTTACTAAAA,57.5 % of maximum
AAAAAACCAACTCTCTTTCGGACTATAAAA,53.8 % of maximum
AAAAAAGGACGTCTTCGGTATGAGTGAAAA,77.9 % of maximum
AAAAAATTAGTCCTGATTCAATCTTCAAAA,66.2 % of maximum

# Set 4
# Target: RING finger protein unkempt homolog, zinc fingers 1-6, GST-SBP tag (UNK, Homo sapiens, UniProt Q9C0B0, residues 30-357)
# Method: RNA Bind-n-Seq
# Molecule type: RNA
# Medium: in vitro
# Concentration: not given
# Setting: RNA with constant flanks, human and mouse sites, ends assumed
# Reference: input RNA pool
# Reading: higher = stronger binding
# Shared flanks, not repeated: GGGAGUUCUACAGUCCGACGAUC … CAACAGAGGAUUGAGCAUCA
# Target sequence (chain): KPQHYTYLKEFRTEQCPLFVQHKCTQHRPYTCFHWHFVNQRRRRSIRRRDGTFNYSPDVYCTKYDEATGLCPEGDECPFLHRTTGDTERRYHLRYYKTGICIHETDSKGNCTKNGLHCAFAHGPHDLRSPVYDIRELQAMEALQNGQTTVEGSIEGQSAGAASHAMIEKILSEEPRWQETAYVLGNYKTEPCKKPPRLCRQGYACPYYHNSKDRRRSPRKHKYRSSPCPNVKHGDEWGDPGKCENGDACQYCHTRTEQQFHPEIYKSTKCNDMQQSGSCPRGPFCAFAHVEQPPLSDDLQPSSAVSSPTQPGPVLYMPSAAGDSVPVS
Strand,bound/input enrichment
CCAACAGGGGAAGCAGCAGCCAAUACCCAGCAGACACUUACUUUCUAUGAACUGGACCUUGGCUUAAAUCAUGUGGUUCGGAAAUACAGUGAACCCUUGGAGGAACAUGGCAACUUCCUU,0.196 ratio
GUAGGCAUGCCCGUCAAAGCAGAUGGCAAGGCCUUUUGCAACGUGGGUUUCUUUGAGGAAUUUCCUCUGCAAGAGCCUCAGGCGCCUCUCAAGUUCAACCCAUGUUUUGAGAUGCCUAUG,0.0975 ratio
UAGAGAUGAUAUCAAUUAUUACCUAUUGUUGCACUGACUUAUACGUAGAUCAAUAGGAGAUUUAGAUGCCCUUAUGCUGUGAGUUUGAUGUGAUUUCAUUAGCUGCAUGGUGCUUUCUGA,1.37 ratio
UCACAAGAUCUAUCAGCAGCACCUGCUGAACAGUAUCUUCAGGAGAAACUGCCAGAUGAAGUGGUUCUAAAAAUCUUCUCUUACUUGCUGGAACAGGAUCUUUGUAGAGCAGCUUGUGUA,0.113 ratio
AAUGUAGCUUUGACUUUCUGGAGAAAGAGAAGUAUAAGUGAACUUGUAGCUUAUUUAGUGAGGAUAGAAGACCUUGGAGUUGUGGUAGAUUGCCUUCCUGUUCUAACCAAUAGUUUACAG,1.27 ratio
CUUGCUUUCUGUAGGAGAAUUGAACAGCACUAUUUUGAAGAUCGUGGUAAAGGCAGGCUGUCAUAGAGUUAUGUGUUAGUCUCAGGAGUCUUAACUUUUGAAAUAUGUUUUACUUGAAUG,2.79 ratio
CAGAAUCGAGAGGGCCUGAGGGCCCUGCAGAAGGAUCUCAGCCUCUCUGAAGAUGUGAUGGUUUGCUUCGGGAACAUGUUUAUCAAGAUGCCUCACCCUGAGACAAAGGAAAUGAUUGAA,0.155 ratio
CGCUGAUGUGAACCUUUUUAUAGAUUGUAGUAACCUGCAGAAAGAAGUAGGUUUUUAUUUUUAGGAAGUUAUGUACCAUAAUUUUAAACUUAAGUUUCUCUAAUAUUACUAACUAUAAAA,1.26 ratio
CUAGCUAGGGACCUAUUUUGUUUGGUUUUCAAAGAAUCAGUUUUUUGUCUUUGUGGAUUUUUCUCAGUUGUUGAUCUCAUUGGCAUUUGAAUUGUAUUUCCUCUCCUACAUGCCUUGUGU,1.75 ratio
AAAUACUGGAAAAAGGCGAUGAACAUGAGGUACAGUGAUAGGACUAAUAUAAUUAGUAAACCAGUCCCACAGACACUGAUAAUGGCCUAUGACUAUGCCAAGGAGGUAAACAGUGCAGAA,0.652 ratio
UAGCCUGAGUAUACAAUCAAGCUUCAGUGUGCAACCUUUUUUUCUUUUGCCAUUUUCUAUUUUAGUAAUUUCCUUGGGGAACUAAAUAAUUUUGCAGAAUUUUUCCUAAUUUUGUUUAUC,2.11 ratio

# Set 5
# Target: ABI1, truncated, D143A, DHFR fusion (Arabidopsis thaliana)
# Method: DHFR PCA, deep sequencing
# Medium: yeast
# Setting: methotrexate growth selection, single substitutions
# Added: (+)-ABA 4.8 µM
# Reference: wild-type fitted maximum
# Reading: higher = stronger binding
# Starting sequence: PYL1, truncated, DHFR fusion (Arabidopsis thaliana); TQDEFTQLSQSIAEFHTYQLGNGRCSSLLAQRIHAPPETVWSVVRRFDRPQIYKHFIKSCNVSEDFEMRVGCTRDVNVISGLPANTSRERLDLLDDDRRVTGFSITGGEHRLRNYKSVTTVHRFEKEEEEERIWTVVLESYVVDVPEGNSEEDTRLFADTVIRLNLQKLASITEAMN; partner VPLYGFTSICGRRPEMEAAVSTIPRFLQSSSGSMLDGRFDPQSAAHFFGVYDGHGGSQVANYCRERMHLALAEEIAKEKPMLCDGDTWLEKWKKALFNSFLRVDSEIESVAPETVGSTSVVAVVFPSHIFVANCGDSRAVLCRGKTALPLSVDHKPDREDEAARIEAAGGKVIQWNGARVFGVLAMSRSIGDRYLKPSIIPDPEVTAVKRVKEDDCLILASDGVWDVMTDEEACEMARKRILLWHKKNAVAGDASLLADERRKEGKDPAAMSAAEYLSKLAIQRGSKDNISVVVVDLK
Change,relative binding score
R45H,-1.43%
C72A,85.9%
S140Q,-15.4%
E151G,47.8%
E109L,19.9%
T101Y,39.9%
T39K,67.7%
L82W,26.6%
G102A,44.4%
I162W,-4.31%
L156C,83.6%
I79V,83.9%
R88S,60%
D144Y,0.768%
Y141N,2.89%
S42N,67.5%
Q7E,73.7%
P83L,11.5%

# For quick reference, copied from above (set 5):
Change,relative binding score
E151G,47.8%
E109L,19.9%
T101Y,39.9%
T39K,67.7%
L82W,26.6%
G102A,44.4%
I162W,-4.31%
L156C,83.6%
I79V,83.9%
R88S,60%
D144Y,0.768%
